Published values of several laboratories.
Numbers after ± are the reported error.

SMILES = N#C[C@@H]1CCCN1C(=O)CNC(=O)c1ccnc2ccc(OCCCN3CCN(C(=O)CCc4ccc5c(c4)CN4CCN6CC(=O)[O][68Ga-]([O]C(=O)C4)([O]5)[O]c4ccc(CCC(=O)N5CCN(CCCOc7ccc8nccc(C(=O)NCC(=O)N9CCC[C@H]9C#N)c8c7)CC5)cc4C6)CC3)cc12; test system = BALB/c nude mice, U-87 MG xenograft, spleen; conditions = 1 h; tissue uptake = 0.72 ± 0.07 %ID/g
SMILES = COc1ccc(Nc2nc(Nc3ccc(OCCOCC[18F])cc3)ncc2Br)cc1; test system = ICR mice, S180 tumour, intestine; conditions = intravenous, 370 kBq, 5 min; tissue uptake = 1.2 ± 0.07 %ID
SMILES = O=C(NCC1OC2CCC=CCCC2O1)c1ccc(COCCOCCOCC[18F])cc1 (stereo not drawn); test system = healthy female BALB/c nude mice, lungs; conditions = intravenous, 7.4 MBq per mouse, 30 min; tissue uptake = 2.4 ± 0.1 %ID/g
SMILES = COc1ccc(Nc2nc(Nc3ccc(OCCOCCOCC[18F])cc3)ncc2Br)cc1; test system = ICR mice, S180 tumour-bearing, spleen; conditions = intravenous, 370 kBq, 15 min; tissue uptake = 2.11 ± 0.19 %ID/g
SMILES = CCCC[C@H](NC(=O)CCCCCCCNC(=O)CN1CCN(CC(=O)O)CCN(CC(=O)O)CC1)C(=O)N[C@H]1CC(=O)NCCCC[C@@H](C(N)=O)NC(=O)[C@H](Cc2c[nH]c3ccccc23)NC(=O)[C@H](CCCNC(=N)N)NC(=O)[C@@H](Cc2ccccc2)NC(=O)[C@H](Cc2c[nH]cn2)NC1=O [fluorine-18 labelled]; test system = C57 mice B16-F10 melanoma, heart; conditions = intravenous, 0.37 MBq, 1 h; tissue uptake = 0.7 ± 0.61 %ID/g
SMILES = Cc1cc(C)n(CCN(CCN)CCCCCCNC(=O)[C@@H](N)Cc2c[nH]c3ccccc23)n1.[99Tc+].[C-]#[O+].[C-]#[O+].[C-]#[O+]; test system = BALB/c nude mice A549 xenograft, tumor; conditions = intravenous, 15 min; tissue uptake = 1.6 ± 0.68 %ID/g
SMILES = O=C([O-])CN1CCN(CC(=O)[O-])CCN(CC(=O)NC[C@H]2CC[C@H](C(=O)N[C@H](Cc3cnc4ccccc4c3)C(=O)NCCCC[C@H](NC(=O)N[C@@H](CCC(=O)O)C(=O)O)C(=O)O)CC2)CCN(CC(=O)[O-])CC1.[64Cu+2]; test = ex vivo gamma counting; test system = 22Rv1 tumour-bearing mice, kidney; conditions = intravenous, 0.74 MBq, 1 h post-injection; tissue uptake = 147 %ID/g
SMILES = Cc1cc(C)n(CCN(CCN)CCCCCCNC(=O)[C@@H](N)Cc2c[nH]cn2)n1.[99Tc+].[C-]#[O+].[C-]#[O+].[C-]#[O+]; test system = BALB/c nude mice, A549 xenograft, pancreas; conditions = intravenous, 4 h; tissue uptake = 0.49 ± 0.01 %IA/g
SMILES = O=C(NCC1OC2CCC=CCCC2O1)c1ccc([18F])nc1 (stereo not drawn); test system = healthy female BALB/c nude mice, skin; conditions = intravenous, 7.4 MBq per mouse, 2 min; tissue uptake = 2.5 ± 0.4 %ID/g

For quick reference, copied from above:
SMILES = O=C(NCC1OC2CCC=CCCC2O1)c1ccc([18F])nc1 (stereo not drawn); test system = healthy female BALB/c nude mice, skin; conditions = intravenous, 7.4 MBq per mouse, 2 min; tissue uptake = 2.5 ± 0.4 %ID/g
